Experimental data from different studies.
Every numbered part comes from another study and shows a few of its results, in no order. “And” joins repeats or separate records; there may be more than shown.
Sequence of UniProt Q9HC98 (whole entry, looked up): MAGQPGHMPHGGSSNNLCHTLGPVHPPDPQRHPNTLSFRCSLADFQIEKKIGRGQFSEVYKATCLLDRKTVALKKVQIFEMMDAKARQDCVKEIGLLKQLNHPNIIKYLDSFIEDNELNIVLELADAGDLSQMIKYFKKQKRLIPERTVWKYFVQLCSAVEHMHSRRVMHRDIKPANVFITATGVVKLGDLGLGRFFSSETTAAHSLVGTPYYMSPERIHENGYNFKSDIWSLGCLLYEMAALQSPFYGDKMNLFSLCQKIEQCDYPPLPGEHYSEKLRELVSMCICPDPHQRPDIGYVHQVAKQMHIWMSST
Sequence of UniProt P49760 (whole entry, looked up): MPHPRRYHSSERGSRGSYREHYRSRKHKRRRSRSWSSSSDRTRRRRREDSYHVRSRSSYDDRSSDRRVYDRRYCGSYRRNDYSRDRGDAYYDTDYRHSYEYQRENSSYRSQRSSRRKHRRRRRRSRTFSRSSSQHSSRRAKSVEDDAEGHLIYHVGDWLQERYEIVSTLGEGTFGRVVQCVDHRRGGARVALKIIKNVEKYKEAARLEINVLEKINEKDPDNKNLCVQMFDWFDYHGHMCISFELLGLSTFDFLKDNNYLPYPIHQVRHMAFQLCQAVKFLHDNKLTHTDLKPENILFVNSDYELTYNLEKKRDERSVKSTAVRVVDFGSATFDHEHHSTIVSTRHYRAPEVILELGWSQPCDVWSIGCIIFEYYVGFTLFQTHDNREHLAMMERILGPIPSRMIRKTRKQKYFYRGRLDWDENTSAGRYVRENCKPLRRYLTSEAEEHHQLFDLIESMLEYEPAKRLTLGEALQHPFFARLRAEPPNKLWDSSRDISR
Sequence of UniProt Q99558 (whole entry, looked up): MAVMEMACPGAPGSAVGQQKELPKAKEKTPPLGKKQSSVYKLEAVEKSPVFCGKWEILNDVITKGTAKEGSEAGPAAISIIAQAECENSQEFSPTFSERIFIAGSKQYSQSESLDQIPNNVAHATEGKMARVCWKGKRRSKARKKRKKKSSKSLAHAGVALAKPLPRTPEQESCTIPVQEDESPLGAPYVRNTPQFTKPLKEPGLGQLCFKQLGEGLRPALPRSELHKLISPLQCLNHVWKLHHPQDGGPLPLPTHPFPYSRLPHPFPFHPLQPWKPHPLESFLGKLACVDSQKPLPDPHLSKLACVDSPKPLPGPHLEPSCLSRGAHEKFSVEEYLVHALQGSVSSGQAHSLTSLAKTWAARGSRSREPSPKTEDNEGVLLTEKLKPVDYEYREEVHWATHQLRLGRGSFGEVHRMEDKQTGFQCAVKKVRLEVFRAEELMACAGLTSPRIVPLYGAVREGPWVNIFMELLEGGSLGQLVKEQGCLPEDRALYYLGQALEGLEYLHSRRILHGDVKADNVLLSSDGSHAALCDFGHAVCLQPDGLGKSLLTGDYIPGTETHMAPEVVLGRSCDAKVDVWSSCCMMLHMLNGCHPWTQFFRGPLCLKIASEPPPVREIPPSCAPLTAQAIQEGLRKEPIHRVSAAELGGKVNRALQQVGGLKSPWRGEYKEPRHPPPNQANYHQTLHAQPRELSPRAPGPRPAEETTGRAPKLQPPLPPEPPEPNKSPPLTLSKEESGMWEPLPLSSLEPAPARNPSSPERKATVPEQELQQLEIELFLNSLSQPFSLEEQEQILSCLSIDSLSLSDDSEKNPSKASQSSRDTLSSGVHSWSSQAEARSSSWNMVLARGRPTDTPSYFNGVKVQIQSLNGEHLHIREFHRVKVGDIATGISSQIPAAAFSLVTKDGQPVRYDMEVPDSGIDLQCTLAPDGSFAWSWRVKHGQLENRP
Sequence of UniProt Q9UHD2 (whole entry, looked up): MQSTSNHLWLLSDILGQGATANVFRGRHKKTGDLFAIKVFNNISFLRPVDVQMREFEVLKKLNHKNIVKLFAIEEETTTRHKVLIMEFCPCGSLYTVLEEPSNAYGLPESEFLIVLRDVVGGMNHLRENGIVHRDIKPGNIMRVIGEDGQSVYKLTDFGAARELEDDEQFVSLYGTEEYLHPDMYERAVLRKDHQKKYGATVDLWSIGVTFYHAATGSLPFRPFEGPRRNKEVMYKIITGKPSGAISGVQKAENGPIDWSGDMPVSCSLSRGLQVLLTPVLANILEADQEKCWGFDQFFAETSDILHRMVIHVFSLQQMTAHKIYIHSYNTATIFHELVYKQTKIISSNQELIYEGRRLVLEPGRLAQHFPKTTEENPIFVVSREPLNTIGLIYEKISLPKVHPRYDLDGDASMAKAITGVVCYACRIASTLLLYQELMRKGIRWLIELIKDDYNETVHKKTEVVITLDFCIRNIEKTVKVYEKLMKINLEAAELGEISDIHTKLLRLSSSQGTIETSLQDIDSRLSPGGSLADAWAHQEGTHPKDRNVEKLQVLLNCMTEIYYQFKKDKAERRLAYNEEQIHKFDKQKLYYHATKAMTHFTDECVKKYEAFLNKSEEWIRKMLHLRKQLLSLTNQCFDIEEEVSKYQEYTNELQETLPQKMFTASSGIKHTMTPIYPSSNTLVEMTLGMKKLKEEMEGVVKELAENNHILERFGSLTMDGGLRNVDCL
Sequence of UniProt P22607 (whole entry, looked up): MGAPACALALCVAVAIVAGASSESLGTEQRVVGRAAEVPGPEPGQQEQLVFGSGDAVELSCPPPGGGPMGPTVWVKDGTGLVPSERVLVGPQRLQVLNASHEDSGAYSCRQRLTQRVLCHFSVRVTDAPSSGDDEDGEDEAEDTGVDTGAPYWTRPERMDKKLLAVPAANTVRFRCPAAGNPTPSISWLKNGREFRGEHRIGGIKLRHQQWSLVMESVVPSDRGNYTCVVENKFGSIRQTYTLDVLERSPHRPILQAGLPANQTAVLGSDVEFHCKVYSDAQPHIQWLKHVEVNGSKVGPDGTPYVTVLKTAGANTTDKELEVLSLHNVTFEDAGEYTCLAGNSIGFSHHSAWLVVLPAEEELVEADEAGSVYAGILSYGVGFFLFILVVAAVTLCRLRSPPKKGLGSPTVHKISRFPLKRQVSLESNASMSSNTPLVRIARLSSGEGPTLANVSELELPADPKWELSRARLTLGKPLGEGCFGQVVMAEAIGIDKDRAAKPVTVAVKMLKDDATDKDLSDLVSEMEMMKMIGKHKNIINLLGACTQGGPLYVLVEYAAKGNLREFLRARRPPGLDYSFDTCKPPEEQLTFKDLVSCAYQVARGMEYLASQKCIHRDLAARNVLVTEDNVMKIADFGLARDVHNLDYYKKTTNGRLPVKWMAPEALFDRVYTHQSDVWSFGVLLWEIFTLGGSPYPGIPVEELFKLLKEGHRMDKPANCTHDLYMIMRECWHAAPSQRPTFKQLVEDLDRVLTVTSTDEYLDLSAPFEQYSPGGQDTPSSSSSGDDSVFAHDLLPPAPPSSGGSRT
Sequence of UniProt Q8NE63 (whole entry, looked up): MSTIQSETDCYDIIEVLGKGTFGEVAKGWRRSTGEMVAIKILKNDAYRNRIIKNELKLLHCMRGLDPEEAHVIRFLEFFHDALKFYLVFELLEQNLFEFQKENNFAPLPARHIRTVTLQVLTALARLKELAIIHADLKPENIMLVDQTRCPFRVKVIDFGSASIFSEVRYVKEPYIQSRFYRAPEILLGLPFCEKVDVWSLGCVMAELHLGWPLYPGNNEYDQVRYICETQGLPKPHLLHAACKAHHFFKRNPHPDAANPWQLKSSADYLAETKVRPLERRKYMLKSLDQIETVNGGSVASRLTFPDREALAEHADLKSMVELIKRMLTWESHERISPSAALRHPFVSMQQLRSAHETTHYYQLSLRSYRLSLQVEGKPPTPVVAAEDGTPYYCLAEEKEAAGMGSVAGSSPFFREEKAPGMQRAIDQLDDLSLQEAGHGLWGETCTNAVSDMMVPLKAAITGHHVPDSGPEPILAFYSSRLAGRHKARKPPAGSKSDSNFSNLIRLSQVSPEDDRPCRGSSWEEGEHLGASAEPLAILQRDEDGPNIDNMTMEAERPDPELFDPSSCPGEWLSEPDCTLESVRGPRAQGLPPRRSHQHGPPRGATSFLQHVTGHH
Sequence of UniProt P30291 (whole entry, looked up): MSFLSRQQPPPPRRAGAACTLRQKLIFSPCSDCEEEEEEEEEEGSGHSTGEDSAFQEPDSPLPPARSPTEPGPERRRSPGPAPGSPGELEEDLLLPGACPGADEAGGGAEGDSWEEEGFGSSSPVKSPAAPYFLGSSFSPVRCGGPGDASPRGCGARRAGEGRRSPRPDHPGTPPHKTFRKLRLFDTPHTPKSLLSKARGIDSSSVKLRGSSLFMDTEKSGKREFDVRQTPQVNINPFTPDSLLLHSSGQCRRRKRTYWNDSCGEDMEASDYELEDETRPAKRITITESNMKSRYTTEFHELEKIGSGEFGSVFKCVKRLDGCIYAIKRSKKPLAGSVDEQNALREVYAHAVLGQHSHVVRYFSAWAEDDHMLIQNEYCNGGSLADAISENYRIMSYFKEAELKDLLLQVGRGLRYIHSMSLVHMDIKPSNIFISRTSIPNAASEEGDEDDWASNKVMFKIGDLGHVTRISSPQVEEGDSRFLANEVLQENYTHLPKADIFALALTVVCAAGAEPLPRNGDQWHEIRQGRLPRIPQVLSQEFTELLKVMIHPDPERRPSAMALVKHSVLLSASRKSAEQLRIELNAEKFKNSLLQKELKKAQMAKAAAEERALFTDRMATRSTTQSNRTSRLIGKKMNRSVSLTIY
Sequence of UniProt Q8N752 (whole entry, looked up): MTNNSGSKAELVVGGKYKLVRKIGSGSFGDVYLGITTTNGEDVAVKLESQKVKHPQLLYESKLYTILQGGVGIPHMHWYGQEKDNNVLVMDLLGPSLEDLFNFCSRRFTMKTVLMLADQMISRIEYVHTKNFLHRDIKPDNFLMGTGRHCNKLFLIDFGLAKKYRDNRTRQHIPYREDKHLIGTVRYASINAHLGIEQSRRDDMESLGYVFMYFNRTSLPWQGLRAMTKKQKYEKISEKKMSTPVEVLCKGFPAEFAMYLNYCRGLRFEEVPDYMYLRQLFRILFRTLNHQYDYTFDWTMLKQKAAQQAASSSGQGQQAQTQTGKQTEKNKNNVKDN

Block 1
Cell line: mouse MPNST tumor cells
Method: high-content nuclear imaging
Item: cell number
Tested at: 10 µM
Time: 12 h
Setting: mean of 2 replicates
Relative to: plate mean
Reading: higher = more cells
Structure (SMILES)	nuclei count
FC(F)(F)c1ccc(/C=C/c2nc(COc3ccc(CCCCn4ccnn4)cc3)co2)cc1	0.114 z-score
CN1CCC(OC(c2ccccc2)c2ccccc2)CC1	2.95 z-score
CC(C)(C)c1ccc(-c2nc3c(N4CCN(Cc5ccc6nccnc6c5)CC4)cccc3[nH]2)cc1	3.38 z-score
CC(C)NCCN(C(C)C)S(=O)(=O)c1ccc(Cl)cc1Cl	2.9 z-score
Cc1onc(C(=O)N2CCN(C(c3ccc(Cl)cc3)c3ccc(Cl)cc3)CC2)c1[N+](=O)[O-]	-3.69 z-score
CCC(=O)c1cc(-c2ccc(Cl)cc2)n(-c2ccc(S(N)(=O)=O)cc2)c1C	4.56 z-score
O=C(Cc1ccccc1)Nc1nc2ccc(Cl)cc2c2nc(-c3ccco3)nn12	1.68 z-score
CCN1CCC[C@H]1CNC(=O)c1cc(S(N)(=O)=O)ccc1OC	0.783 z-score

Block 2
Structure (SMILES): O=C(N[C@H]1CCCCC/C=C\C2C[C@@]2(C(=O)O)NC(=O)[C@@H]2C[C@@H](Oc3ccncc3)CN2C1=O)OC1CCCC1 (some centres unmarked)
Method: competition with immobilised ligand
Tested at: 1 µM
target	read-out	remaining binding
CLK1 (Homo sapiens, UniProt P49759)	binding	100%
NEK10 (Homo sapiens, UniProt Q6ZWH5)	binding	81%
CSNK1A1L (Homo sapiens, UniProt Q8N752)	binding	100%
CSNK1G2 (Homo sapiens, UniProt P78368)	binding	63%
MAST1 (Homo sapiens, UniProt Q9Y2H9)	binding	82%
CAMK2G (Homo sapiens, UniProt Q13555)	binding	86%
HIPK4 (Homo sapiens, UniProt Q8NE63)	binding	100%
FLT3 (Homo sapiens, UniProt P36888, K663Q)	binding	85%
ERBB2 (Homo sapiens, UniProt P04626)	binding	100%
Tyrosine-protein kinase ABL1, non-phosphorylated (ABL1, Homo sapiens, UniProt P00519, Q252H)	binding	65%
CAMK2D (Homo sapiens, UniProt Q13557)	cell-free assay	87%
CLK2 (Homo sapiens, UniProt P49760)	binding	100%
CDKL2 (Homo sapiens, UniProt Q92772)	binding	100%
Aurora kinase A (AURKA, Homo sapiens, UniProt O14965)	cell-free assay	92%

Block 3
SMILES: CC(C)(C(=O)O)[C@H](NC(=O)Cc1cccc(I)c1)c1ccc2oc(=O)[nH]c2c1
Method: Incucyte 3D growth
Tested at: 30 µM
Reading: higher = more growth
cell line	time	spheroid area
MEL-JUSO	192.52 h	1.79e+07 a.u. and 1.57e+07 a.u. and 1.77e+07 a.u. and 1.99e+07 a.u. and 1.33e+07 a.u. and 1.58e+07 a.u.
MEL-JUSO	318.52 h	3.22e+07 a.u. and 2.9e+07 a.u. and 4.43e+07 a.u. and 2.53e+07 a.u. and 3e+07 a.u. and 2.66e+07 a.u.
PC-9	246 h	1.9e+09 a.u. and 1.83e+09 a.u. and 1.88e+09 a.u. and 1.92e+09 a.u. and 1.87e+09 a.u. and 1.86e+09 a.u.
NCI-H358	0 h	3.25e+06 a.u. and 3.32e+06 a.u. and 3.44e+06 a.u. and 3.59e+06 a.u. and 3.31e+06 a.u. and 3.48e+06 a.u.
NCI-H358	18 h	3.16e+06 a.u. and 3.14e+06 a.u. and 3.54e+06 a.u. and 3.39e+06 a.u. and 3.46e+06 a.u. and 2.75e+06 a.u.
NCI-H358	210 h	7.91e+06 a.u. and 9.99e+06 a.u. and 7.52e+06 a.u. and 6.15e+06 a.u. and 1.01e+07 a.u. and 9.47e+06 a.u.
MEL-JUSO	264.52 h	2.23e+07 a.u. and 2.09e+07 a.u. and 1.72e+07 a.u. and 2.39e+07 a.u. and 3.49e+07 a.u. and 1.91e+07 a.u.
A375	18.52 h	1.33e+07 a.u. and 1.11e+07 a.u. and 1.05e+07 a.u. and 1.29e+07 a.u.

Block 4
SMILES: c1ccc(-c2[nH]ncc2-c2ccnc3ccccc23)nc1
Read-out: enzyme activity
Mode: inhibitor
Tested at: 0.5 µM
Relative to: control
target	remaining activity
FGFR1 (Homo sapiens, UniProt P11362)	94.2%
MAP2K2 (Homo sapiens, UniProt P36507)	106%
FRK (Homo sapiens, UniProt P42685)	92.8%
ULK3 (Homo sapiens, UniProt Q6PHR2)	85.3%
MAPK3 (Homo sapiens, UniProt P27361)	101%
NEK6 (Homo sapiens, UniProt Q9HC98)	106%
WEE1 (Homo sapiens, UniProt P30291)	91.1%
GRK7 (Homo sapiens, UniProt Q8WTQ7)	102%
MAP3K14 (Homo sapiens, UniProt Q99558)	116%
TAOK2 (Homo sapiens, UniProt Q9UL54)	96.8%
ARAF (Homo sapiens, UniProt P10398)	91.5%
TBK1 (Homo sapiens, UniProt Q9UHD2)	92.6%
EPHA3 (Homo sapiens, UniProt P29320)	99.3%
FGFR3 (Homo sapiens, UniProt P22607)	97.4%

A few entries again (block 3):
cell line	time	spheroid area
NCI-H358	210 h	7.91e+06 a.u. and 9.99e+06 a.u. and 7.52e+06 a.u. and 6.15e+06 a.u. and 1.01e+07 a.u. and 9.47e+06 a.u.
MEL-JUSO	264.52 h	2.23e+07 a.u. and 2.09e+07 a.u. and 1.72e+07 a.u. and 2.39e+07 a.u. and 3.49e+07 a.u. and 1.91e+07 a.u.
MEL-JUSO	192.52 h	1.79e+07 a.u. and 1.57e+07 a.u. and 1.77e+07 a.u. and 1.99e+07 a.u. and 1.33e+07 a.u. and 1.58e+07 a.u.
A375	18.52 h	1.33e+07 a.u. and 1.11e+07 a.u. and 1.05e+07 a.u. and 1.29e+07 a.u.
